{"data": "Measured values from different studies", "note": "Parts stem from different laboratories: compare values within a part only.", "chain of UniProt P42336 (whole entry, unmodified, looked up)": "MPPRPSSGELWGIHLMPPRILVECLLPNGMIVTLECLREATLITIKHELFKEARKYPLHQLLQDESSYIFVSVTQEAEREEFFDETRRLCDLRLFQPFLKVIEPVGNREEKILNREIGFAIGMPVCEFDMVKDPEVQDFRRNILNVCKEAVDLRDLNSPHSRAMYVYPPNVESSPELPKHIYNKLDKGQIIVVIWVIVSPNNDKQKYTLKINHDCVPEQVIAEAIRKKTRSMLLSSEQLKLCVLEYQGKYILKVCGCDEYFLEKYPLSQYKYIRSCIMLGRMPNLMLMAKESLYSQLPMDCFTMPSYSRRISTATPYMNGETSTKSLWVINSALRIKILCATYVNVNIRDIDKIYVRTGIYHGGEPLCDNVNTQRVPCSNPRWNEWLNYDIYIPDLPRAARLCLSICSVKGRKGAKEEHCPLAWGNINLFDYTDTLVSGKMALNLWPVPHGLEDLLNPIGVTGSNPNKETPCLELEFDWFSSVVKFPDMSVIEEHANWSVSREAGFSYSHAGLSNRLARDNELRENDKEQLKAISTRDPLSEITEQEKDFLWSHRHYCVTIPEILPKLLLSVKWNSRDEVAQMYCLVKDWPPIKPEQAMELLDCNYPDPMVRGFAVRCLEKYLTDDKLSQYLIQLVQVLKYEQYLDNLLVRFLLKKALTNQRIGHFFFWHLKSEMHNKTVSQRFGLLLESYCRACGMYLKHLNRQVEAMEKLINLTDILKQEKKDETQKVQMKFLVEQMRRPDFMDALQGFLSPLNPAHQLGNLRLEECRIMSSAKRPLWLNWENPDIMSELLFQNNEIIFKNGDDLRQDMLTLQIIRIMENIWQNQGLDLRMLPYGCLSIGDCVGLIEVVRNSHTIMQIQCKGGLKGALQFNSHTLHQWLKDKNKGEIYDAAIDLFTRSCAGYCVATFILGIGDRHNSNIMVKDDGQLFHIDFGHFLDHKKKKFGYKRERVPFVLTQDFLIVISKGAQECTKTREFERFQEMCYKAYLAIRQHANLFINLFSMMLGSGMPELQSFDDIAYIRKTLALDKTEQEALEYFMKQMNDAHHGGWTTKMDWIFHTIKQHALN", "chain of UniProt P31751 (whole entry, looked up)": "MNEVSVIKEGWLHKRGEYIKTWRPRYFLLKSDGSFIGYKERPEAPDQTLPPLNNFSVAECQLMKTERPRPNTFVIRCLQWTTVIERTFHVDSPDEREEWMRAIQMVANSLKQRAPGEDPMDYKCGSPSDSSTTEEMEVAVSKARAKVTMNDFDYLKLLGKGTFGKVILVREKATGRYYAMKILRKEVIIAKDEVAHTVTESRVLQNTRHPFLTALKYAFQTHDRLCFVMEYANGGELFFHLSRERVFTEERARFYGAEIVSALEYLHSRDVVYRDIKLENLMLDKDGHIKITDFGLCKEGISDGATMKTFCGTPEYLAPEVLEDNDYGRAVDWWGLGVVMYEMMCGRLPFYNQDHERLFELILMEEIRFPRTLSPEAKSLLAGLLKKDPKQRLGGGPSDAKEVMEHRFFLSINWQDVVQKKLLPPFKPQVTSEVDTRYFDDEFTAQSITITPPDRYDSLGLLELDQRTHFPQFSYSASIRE", "chain of UniProt P35968 (whole entry, looked up)": "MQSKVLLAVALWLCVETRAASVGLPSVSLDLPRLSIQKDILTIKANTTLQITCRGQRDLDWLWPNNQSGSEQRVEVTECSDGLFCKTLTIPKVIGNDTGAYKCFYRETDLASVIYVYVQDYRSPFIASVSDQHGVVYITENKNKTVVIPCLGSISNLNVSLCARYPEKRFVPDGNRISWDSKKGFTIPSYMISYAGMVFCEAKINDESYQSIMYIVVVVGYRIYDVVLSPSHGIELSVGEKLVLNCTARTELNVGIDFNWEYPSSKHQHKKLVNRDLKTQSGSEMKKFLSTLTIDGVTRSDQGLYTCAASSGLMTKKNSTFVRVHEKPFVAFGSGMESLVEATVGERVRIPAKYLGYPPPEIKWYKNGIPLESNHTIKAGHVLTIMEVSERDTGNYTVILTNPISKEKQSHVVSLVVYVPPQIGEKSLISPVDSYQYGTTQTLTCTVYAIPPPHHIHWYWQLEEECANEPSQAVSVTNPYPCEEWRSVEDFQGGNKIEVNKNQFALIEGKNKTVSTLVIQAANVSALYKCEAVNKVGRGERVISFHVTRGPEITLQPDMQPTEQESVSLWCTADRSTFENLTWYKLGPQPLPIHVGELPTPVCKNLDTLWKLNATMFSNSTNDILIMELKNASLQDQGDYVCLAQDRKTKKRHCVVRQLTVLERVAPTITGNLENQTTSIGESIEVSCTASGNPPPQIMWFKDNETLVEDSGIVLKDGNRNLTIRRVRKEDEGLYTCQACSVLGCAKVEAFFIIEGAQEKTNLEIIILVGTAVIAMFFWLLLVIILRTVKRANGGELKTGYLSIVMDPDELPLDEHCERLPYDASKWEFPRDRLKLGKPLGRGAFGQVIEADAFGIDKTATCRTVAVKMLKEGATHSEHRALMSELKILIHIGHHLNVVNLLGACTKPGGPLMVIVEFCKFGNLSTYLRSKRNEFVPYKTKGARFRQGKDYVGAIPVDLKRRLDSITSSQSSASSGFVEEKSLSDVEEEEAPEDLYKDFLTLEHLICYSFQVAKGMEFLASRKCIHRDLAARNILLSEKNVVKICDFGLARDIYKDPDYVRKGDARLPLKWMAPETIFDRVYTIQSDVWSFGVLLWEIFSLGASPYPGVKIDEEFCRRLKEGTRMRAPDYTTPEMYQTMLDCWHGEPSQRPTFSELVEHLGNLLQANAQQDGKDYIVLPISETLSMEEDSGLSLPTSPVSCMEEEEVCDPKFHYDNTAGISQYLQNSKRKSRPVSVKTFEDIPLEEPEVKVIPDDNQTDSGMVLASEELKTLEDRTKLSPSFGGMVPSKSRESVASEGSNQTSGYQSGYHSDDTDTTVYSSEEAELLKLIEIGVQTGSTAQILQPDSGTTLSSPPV", "chain of UniProt Q8N568 (whole entry, looked up)": "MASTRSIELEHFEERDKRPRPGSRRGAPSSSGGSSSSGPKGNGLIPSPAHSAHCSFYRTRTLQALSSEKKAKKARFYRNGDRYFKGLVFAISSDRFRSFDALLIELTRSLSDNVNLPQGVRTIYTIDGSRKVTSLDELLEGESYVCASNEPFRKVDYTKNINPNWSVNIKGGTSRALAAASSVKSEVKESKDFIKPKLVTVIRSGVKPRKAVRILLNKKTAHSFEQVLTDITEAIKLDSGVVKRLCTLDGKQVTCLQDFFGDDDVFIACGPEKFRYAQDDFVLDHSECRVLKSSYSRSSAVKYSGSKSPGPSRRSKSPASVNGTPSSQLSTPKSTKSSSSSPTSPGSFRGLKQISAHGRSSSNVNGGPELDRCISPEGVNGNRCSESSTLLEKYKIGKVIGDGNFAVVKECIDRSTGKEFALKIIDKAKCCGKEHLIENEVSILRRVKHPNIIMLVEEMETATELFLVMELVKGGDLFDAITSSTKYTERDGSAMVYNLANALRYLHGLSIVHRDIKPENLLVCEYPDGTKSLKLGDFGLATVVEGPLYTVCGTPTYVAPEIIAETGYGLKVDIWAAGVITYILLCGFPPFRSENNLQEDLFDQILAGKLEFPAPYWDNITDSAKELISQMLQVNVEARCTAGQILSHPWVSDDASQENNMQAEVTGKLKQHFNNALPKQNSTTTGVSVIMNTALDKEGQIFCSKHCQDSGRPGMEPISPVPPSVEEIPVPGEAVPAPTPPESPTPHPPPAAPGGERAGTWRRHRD", "chain of UniProt P49761 (whole entry, looked up)": "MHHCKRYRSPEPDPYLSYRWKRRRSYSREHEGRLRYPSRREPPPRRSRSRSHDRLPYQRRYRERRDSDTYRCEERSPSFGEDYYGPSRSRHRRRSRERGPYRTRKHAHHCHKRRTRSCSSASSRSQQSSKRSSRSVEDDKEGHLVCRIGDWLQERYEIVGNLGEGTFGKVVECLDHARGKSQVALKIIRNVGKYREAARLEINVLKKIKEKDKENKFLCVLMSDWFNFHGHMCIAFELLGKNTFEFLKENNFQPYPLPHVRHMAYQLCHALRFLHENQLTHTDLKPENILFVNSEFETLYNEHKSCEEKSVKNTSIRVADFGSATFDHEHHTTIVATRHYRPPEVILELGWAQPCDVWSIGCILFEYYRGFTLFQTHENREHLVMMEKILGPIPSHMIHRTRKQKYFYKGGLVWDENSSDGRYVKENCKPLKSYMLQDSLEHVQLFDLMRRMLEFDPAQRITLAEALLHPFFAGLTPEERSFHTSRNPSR", "chain of UniProt P43403 (whole entry, looked up)": "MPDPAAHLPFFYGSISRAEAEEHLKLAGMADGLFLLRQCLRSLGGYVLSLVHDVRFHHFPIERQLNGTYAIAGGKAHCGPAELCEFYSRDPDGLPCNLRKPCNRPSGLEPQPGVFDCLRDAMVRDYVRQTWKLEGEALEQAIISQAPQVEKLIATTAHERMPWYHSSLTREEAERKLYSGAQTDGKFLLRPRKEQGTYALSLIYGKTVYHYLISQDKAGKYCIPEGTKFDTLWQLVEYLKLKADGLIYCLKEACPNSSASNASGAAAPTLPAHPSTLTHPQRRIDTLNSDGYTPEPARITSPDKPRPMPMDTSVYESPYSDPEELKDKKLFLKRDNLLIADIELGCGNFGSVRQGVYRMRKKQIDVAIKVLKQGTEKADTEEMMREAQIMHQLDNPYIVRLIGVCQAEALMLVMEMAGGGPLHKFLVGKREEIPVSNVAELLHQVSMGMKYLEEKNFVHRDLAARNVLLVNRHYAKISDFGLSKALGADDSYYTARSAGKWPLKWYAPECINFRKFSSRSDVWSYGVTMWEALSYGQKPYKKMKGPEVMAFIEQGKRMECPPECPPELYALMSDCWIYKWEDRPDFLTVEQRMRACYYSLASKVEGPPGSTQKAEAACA"}
{"data": "Series 1", "SMILES": "COc1cc2ncnc(Nc3ccc(OCc4ccccc4)cc3)c2cc1OC", "observed": "enzyme activity", "mode": "inhibitor", "tested at": "0.5 µM", "relative to": "control"}
{"target": "RAC-beta serine/threonine-protein kinase (AKT2, Homo sapiens, UniProt P31751)", "remaining activity [%]": 101}
{"target": "Vascular endothelial growth factor receptor 2 (KDR, Homo sapiens, UniProt P35968)", "remaining activity [%]": 96.8}
{"target": "Dual specificity protein kinase CLK4 (CLK4, Homo sapiens, UniProt Q9HAZ1)", "remaining activity [%]": 99.5}
{"target": "MAP/microtubule affinity-regulating kinase 4 (MARK4, Homo sapiens, UniProt Q96L34)", "remaining activity [%]": 99.5}
{"target": "Serine/threonine-protein kinase MRCK beta (CDC42BPB, Homo sapiens, UniProt Q9Y5S2)", "remaining activity [%]": 98.8}
{"target": "Dual specificity protein kinase CLK3 (CLK3, Homo sapiens, UniProt P49761)", "remaining activity [%]": 98.2}
{"target": "Mitogen-activated protein kinase 1 (MAPK1, Homo sapiens, UniProt P28482)", "remaining activity [%]": 100}
{"target": "Hepatocyte growth factor receptor (MET, Homo sapiens, UniProt P08581)", "remaining activity [%]": 98.9}
{"target": "Serine/threonine-protein kinase Nek3 (NEK3, Homo sapiens, UniProt P51956)", "remaining activity [%]": 99.1}
{"target": "Serine/threonine-protein kinase PAK 3 (PAK3, Homo sapiens, UniProt O75914)", "remaining activity [%]": 97.7}
{"target": "Misshapen-like kinase 1 (MINK1, Homo sapiens, UniProt Q8N4C8)", "remaining activity [%]": 94.3}
{"target": "Serine/threonine-protein kinase PLK3 (PLK3, Homo sapiens, UniProt Q9H4B4)", "remaining activity [%]": 98}
{"target": "Ribosomal protein S6 kinase alpha-4 (RPS6KA4, Homo sapiens, UniProt O75676)", "remaining activity [%]": 105}
{"target": "Rho-associated protein kinase 1 (ROCK1, Homo sapiens, UniProt Q13464)", "remaining activity [%]": 96.6}
{"data": "Series 2", "Compound": "C=CC(=O)N1CCC[C@@H](n2nc(-c3ccc(Oc4ccccc4)cc3)c3c(N)ncnc32)C1", "mode": "inhibitor", "tested at": "1 µM"}
{"target": "Receptor-type tyrosine-protein kinase FLT3 (FLT3, Homo sapiens, UniProt P36888, D835V/ITD)", "inhibition": "26%"}
{"target": "Serine/threonine-protein kinase Nek11 (NEK11, Homo sapiens, UniProt Q8NG66)", "assay": "enzyme activity", "inhibition": "13%"}
{"target": "Serine/threonine-protein kinase Nek2 (NEK2, Homo sapiens, UniProt P51955)", "assay": "enzyme activity", "inhibition": "23%"}
{"target": "Ribosomal protein S6 kinase alpha-3, N-terminal kinase domain (RPS6KA3, Homo sapiens, UniProt P51812)", "inhibition": "36%"}
{"target": "Serine/threonine-protein kinase tousled-like 2 (TLK2, Homo sapiens, UniProt Q86UE8)", "assay": "enzyme activity", "inhibition": "4%"}
{"target": "RAC-beta serine/threonine-protein kinase (AKT2, Homo sapiens, UniProt P31751)", "assay": "enzyme activity", "inhibition": "6%"}
{"target": "Tyrosine-protein kinase ZAP-70 (ZAP70, Homo sapiens, UniProt P43403)", "assay": "enzyme activity", "inhibition": "5%"}
{"target": "Serine/threonine-protein kinase TAO3 (TAOK3, Homo sapiens, UniProt Q9H2K8)", "assay": "enzyme activity", "inhibition": "22%"}
{"target": "Phosphatidylinositol 4,5-bisphosphate 3-kinase catalytic subunit alpha isoform (PIK3CA, Homo sapiens, UniProt P42336, E545K)", "assay": "enzyme activity", "inhibition": "2%"}
{"data": "Series 3", "Compound": "c1ccc(N2CCN(Cc3nc4ccccc4[nH]3)CC2)nc1", "method": "competition with immobilised ligand", "tested at": "1 µM"}
{"target": "ALK tyrosine kinase receptor (ALK, Homo sapiens, UniProt Q9UM73)", "assay": "cell-free assay", "remaining binding [%]": 91}
{"target": "Serine/threonine-protein kinase 38-like (STK38L, Homo sapiens, UniProt Q9Y2H1)", "assay": "binding", "remaining binding [%]": 72}
{"target": "Phosphatidylinositol 4,5-bisphosphate 3-kinase catalytic subunit alpha isoform (PIK3CA, Homo sapiens, UniProt P42336, E545K)", "assay": "cell-free assay", "remaining binding [%]": 59}
{"target": "Calcium/calmodulin-dependent protein kinase type 1B (PNCK, Homo sapiens, UniProt Q6P2M8)", "assay": "cell-free assay", "remaining binding [%]": 0}
{"target": "Maternal embryonic leucine zipper kinase (MELK, Homo sapiens, UniProt Q14680)", "assay": "binding", "remaining binding [%]": 100}
{"target": "Casein kinase II subunit alpha (CSNK2A1, Homo sapiens, UniProt P68400)", "assay": "cell-free assay", "remaining binding [%]": 97}
{"target": "Ephrin type-B receptor 6 (EPHB6, Homo sapiens, UniProt O15197)", "assay": "cell-free assay", "remaining binding [%]": 75}
{"target": "Ephrin type-A receptor 2 (EPHA2, Homo sapiens, UniProt P29317)", "assay": "cell-free assay", "remaining binding [%]": 100}
{"data": "Series 4", "Compound": "COc1ccc2[nH]c3c4[nH]c5ccc(OC)cc5c4c4c(c3c2c1)C(=O)NC4=O", "method": "competitive binding panel", "tested at": "1 µM", "relative to": "vehicle"}
{"target": "eIF-2-alpha kinase GCN2 (EIF2AK4, Homo sapiens, UniProt Q9P2K8, S808G)", "remaining binding [%]": 74}
{"target": "Serine/threonine-protein kinase DCLK2 (DCLK2, Homo sapiens, UniProt Q8N568)", "assay": "refers to: DCAMKL2", "remaining binding [%]": 90}
{"target": "Phosphatidylinositol 4,5-bisphosphate 3-kinase catalytic subunit delta isoform (PIK3CD, Homo sapiens, UniProt O00329)", "remaining binding [%]": 64}
{"target": "Phosphatidylinositol 4,5-bisphosphate 3-kinase catalytic subunit alpha isoform (PIK3CA, Homo sapiens, UniProt P42336, C420R)", "remaining binding [%]": 90}
{"target": "Homeodomain-interacting protein kinase 4 (HIPK4, Homo sapiens, UniProt Q8NE63)", "remaining binding [%]": 70}
{"target": "Death-associated protein kinase 1 (DAPK1, Homo sapiens, UniProt P53355)", "remaining binding [%]": 22}
{"target": "Aurora kinase B (AURKB, Homo sapiens, UniProt Q96GD4)", "remaining binding [%]": 16}
{"note": "Some of these lines once more (series 3):"}
{"target": "ALK tyrosine kinase receptor (ALK, Homo sapiens, UniProt Q9UM73)", "assay": "cell-free assay", "remaining binding [%]": 91}
{"target": "Serine/threonine-protein kinase 38-like (STK38L, Homo sapiens, UniProt Q9Y2H1)", "assay": "binding", "remaining binding [%]": 72}
{"target": "Phosphatidylinositol 4,5-bisphosphate 3-kinase catalytic subunit alpha isoform (PIK3CA, Homo sapiens, UniProt P42336, E545K)", "assay": "cell-free assay", "remaining binding [%]": 59}
{"target": "Calcium/calmodulin-dependent protein kinase type 1B (PNCK, Homo sapiens, UniProt Q6P2M8)", "assay": "cell-free assay", "remaining binding [%]": 0}
{"target": "Maternal embryonic leucine zipper kinase (MELK, Homo sapiens, UniProt Q14680)", "assay": "binding", "remaining binding [%]": 100}
